# Measurements gathered from unrelated publications.
# Compare with care: the assays were run in different laboratories. ± gives the spread as reported.
# MDM2: E3 ubiquitin-protein ligase Mdm2 (MDM2, Homo sapiens, UniProt Q00987)
# Chain of UniProt Q00987 (whole entry, unmodified, looked up): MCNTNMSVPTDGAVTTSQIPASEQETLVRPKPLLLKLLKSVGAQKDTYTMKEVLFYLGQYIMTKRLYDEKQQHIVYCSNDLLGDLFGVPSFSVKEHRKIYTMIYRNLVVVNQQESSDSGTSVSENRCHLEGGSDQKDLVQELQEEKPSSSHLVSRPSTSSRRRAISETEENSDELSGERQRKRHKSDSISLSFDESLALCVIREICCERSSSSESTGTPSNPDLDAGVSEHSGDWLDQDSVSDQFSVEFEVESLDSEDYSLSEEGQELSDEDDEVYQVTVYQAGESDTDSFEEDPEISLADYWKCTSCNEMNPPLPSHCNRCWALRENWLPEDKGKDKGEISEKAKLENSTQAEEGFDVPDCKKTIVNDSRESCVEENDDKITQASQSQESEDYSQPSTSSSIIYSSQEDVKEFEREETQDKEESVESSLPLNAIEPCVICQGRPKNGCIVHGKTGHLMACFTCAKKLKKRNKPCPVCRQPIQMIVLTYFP
Structure (SMILES),target,assay,setting,endpoint,result
CC(=O)N(Cc1ccccc1)[C@@H](C)C(=O)N(C)[C@@H](C)C(=O)N(Cc1c[nH]c2ccccc12)[C@@H](C)C(=O)N(C)[C@@H](C)C(=O)N(CCC(C)C)[C@@H](C)C(N)=O,MDM2,"binding, fluorescence polarization",together with: labelled PMI peptide,IC50,18000 ± 1000 nM
CC(C)C[C@H](NC(=O)[C@H](CCC(N)=O)NC(=O)[C@H](CCCNC(=N)N)NC(=O)[C@@H](N)CS)C(=O)N[C@@H](CCCNC(=N)N)C(=O)N[C@@H](CCCCN)C(=O)NCC(=O)N[C@@H](CCCCN)C(=O)N[C@@H](Cc1ccccc1)C(=O)N[C@@H](Cc1ccccc1)C(=O)N[C@@H](CO)C(=O)N[C@@H](CCC(=O)O)C(=O)NCC(=O)NCC(=O)N[C@@H](CO)C(=O)NCC(=O)NCC(=O)N[C@H](C(=O)N[C@@H](CO)C(=O)N[C@@H](Cc1ccccc1)C(=O)N[C@@H](CCC(=O)O)C(=O)N[C@@H](CCC(N)=O)C(=O)N[C@@H](Cc1ccccc1)C(=O)N[C@@H](Cc1c[nH]c2ccccc12)C(=O)N[C@@H](C)C(=O)N[C@@H](Cc1c[nH]c2ccccc12)C(=O)N[C@@H](CC(C)C)C(=O)N[C@@H](Cc1c[nH]c2ccccc12)C(=O)N1CCC[C@H]1C(=O)O)[C@@H](C)O,MDM2,fluorescence polarization,together with: rhodamine-labeled peptide,Kd,82.4 nM
CC(=O)N(Cc1ccccc1)[C@@H](C)C(=O)N(C)[C@@H](C)C(=O)N(Cc1c[nH]c2ccc(Cl)cc12)[C@@H](C)C(=O)N(C)[C@@H](C)C(=O)N(CCC(C)C)[C@@H](C)C(N)=O,MDM2,"ligand displacement, FP",,Ki,2700 nM
CC(=O)N(CC(=O)N(C)[C@@H](C)C(=O)N(Cc1c[nH]c2cc(Cl)ccc12)[C@@H](C)C(=O)N(C)[C@@H](C)C(=O)N(CCC(C)(C)C)[C@@H](C)C(=O)N(C)CC(=O)N(C)CC(=O)N(C)CC(=O)NCCNC(=O)c1ccc2c(c1)C(=O)OC21c2ccc(O)cc2Oc2cc(O)ccc21)Cc1ccccc1,"E3 ubiquitin-protein ligase Mdm2, N-terminal domain 17-125 (MDM2, Homo sapiens, UniProt Q00987)","binding, fluorescence anisotropy","25 °C, fluorescein-labelled peptoid, 10 nM",Kd,140 nM
CC(=O)N[C@@H](CC(C)C)C(=O)N[C@H](C(=O)N[C@@H](Cc1ccccc1)C(=O)N[C@H]1CCSc2c(F)c(F)c(c(F)c2F)SCC[C@@H](C(=O)N[C@@H](CCC(N)=O)C(=O)N[C@@H](CC(C)C)C(=O)N[C@H](C(=O)N[C@@H](CO)C(N)=O)[C@@H](C)O)NC(=O)[C@H](Cc2c[nH]c3ccccc23)NC(=O)[C@H](Cc2ccc(O)cc2)NC(=O)[C@H](CCC(=O)O)NC1=O)[C@@H](C)O,MDM2,"ligand displacement, FP",,IC50,92 nM
CC(C)Oc1cc(NC(=O)[C@H](Cc2ccccc2)NC(=O)c2ccc(N)cc2OCc2ccccc2)ccc1C(=O)NCC(=O)O,"E3 ubiquitin-protein ligase Mdm2, L33E; with p53 (MDM2, Homo sapiens, UniProt Q00987, L33E)",fluorescence anisotropy competition,pH 7.5,IC50,10100 ± 1100 nM
CC(=O)N[C@@H](CC(C)C)C(=O)N[C@H](C(=O)N[C@@H](Cc1ccccc1)C(=O)N[C@H]1CSCc2ccc(cc2)CSC[C@@H](C(=O)N[C@@H](CCC(N)=O)C(=O)N[C@@H](CC(C)C)C(=O)N[C@H](C(=O)N[C@@H](CO)C(N)=O)[C@@H](C)O)NC(=O)[C@H](Cc2c[nH]c3ccccc23)NC(=O)[C@H](Cc2ccc(O)cc2)NC(=O)[C@H](CCC(=O)O)NC1=O)[C@@H](C)O,MDM2,"ligand displacement, FP",,IC50,46 nM
CCOC(=O)[C@H]1Cc2c(cc([N+](=O)[O-])cc2[N+](=O)[O-])[C@@H](O)[C@@]12C(=O)Nc1ccccc12,MDM2,,,IC50,820 ± 100 nM
CC(=O)N[C@@H](CC(C)C)C(=O)N[C@H](C(=O)N[C@@H](Cc1ccccc1)C(=O)N[C@@]1(C)CCCC=CCCC[C@@](C)(C(=O)N[C@@H](CCC(N)=O)C(=O)N[C@@H](CC(C)C)C(=O)N[C@H](C(=O)N[C@@H](CO)C(N)=O)[C@@H](C)O)NC(=O)[C@H](Cc2c[nH]c3ccccc23)NC(=O)[C@H](Cc2ccc(O)cc2)NC(=O)[C@H](CCC(=O)O)NC1=O)[C@@H](C)O,MDM2,"ligand displacement, FP",,Ki,10.7 nM
CC(=O)N[C@@H](CC(C)C)C(=O)N[C@H](C(=O)N[C@@H](Cc1ccccc1)C(=O)N[C@H]1CSc2c(F)c(F)c(c(F)c2F)-c2c(F)c(F)c(c(F)c2F)SC[C@@H](C(=O)N[C@@H](CO)C(N)=O)NC(=O)[C@H](CC(C)C)NC(=O)[C@H](CCC(N)=O)NC(=O)[C@H](C)NC(=O)[C@H](Cc2c[nH]c3ccccc23)NC(=O)[C@H](Cc2ccc(O)cc2)NC(=O)[C@H](CCC(=O)O)NC1=O)[C@@H](C)O,MDM2,"ligand displacement, FP",,IC50,2360 nM
CC(=O)N(Cc1cccc(Cl)c1)[C@@H](C)C(=O)N(C)[C@@H](C)C(=O)N(Cc1c[nH]c2ccccc12)[C@@H](C)C(=O)N(C)[C@@H](C)C(=O)N(CCC(C)C)[C@@H](C)C(N)=O,MDM2,"ligand displacement, FP",,Ki,6000 nM

# Repeated from above:
Structure (SMILES),target,assay,setting,endpoint,result
CC(C)C[C@H](NC(=O)[C@H](CCC(N)=O)NC(=O)[C@H](CCCNC(=N)N)NC(=O)[C@@H](N)CS)C(=O)N[C@@H](CCCNC(=N)N)C(=O)N[C@@H](CCCCN)C(=O)NCC(=O)N[C@@H](CCCCN)C(=O)N[C@@H](Cc1ccccc1)C(=O)N[C@@H](Cc1ccccc1)C(=O)N[C@@H](CO)C(=O)N[C@@H](CCC(=O)O)C(=O)NCC(=O)NCC(=O)N[C@@H](CO)C(=O)NCC(=O)NCC(=O)N[C@H](C(=O)N[C@@H](CO)C(=O)N[C@@H](Cc1ccccc1)C(=O)N[C@@H](CCC(=O)O)C(=O)N[C@@H](CCC(N)=O)C(=O)N[C@@H](Cc1ccccc1)C(=O)N[C@@H](Cc1c[nH]c2ccccc12)C(=O)N[C@@H](C)C(=O)N[C@@H](Cc1c[nH]c2ccccc12)C(=O)N[C@@H](CC(C)C)C(=O)N[C@@H](Cc1c[nH]c2ccccc12)C(=O)N1CCC[C@H]1C(=O)O)[C@@H](C)O,MDM2,fluorescence polarization,together with: rhodamine-labeled peptide,Kd,82.4 nM
